Measurements of several laboratories.
Lines come from different studies, so protocols differ. ± marks the error that the study gave.

| Compound | cell line | effect on | method | time | setting | GI50 [µM] |
| --- | --- | --- | --- | --- | --- | --- |
| Cn1cncc1C1=CN(c2ncnc3[nH]cnc23)CCS1 | SF-268 | – | – | – | CNS cancer | 24 |
| O=C(/C=C/C=C/C=C/C1CCCCC1)NC1=C[C@@](O)(/C=C/C=C/C=C/C(=O)NC2=C(O)CCC2=O)[C@@H]2O[C@@H]2C1=O | PC-14 | cell growth | CellTiter-Glo | 78 h | – | 11.7 |
| CNC(=O)c1ccccc1Sc1ccc2c(N)n[nH]c2c1 | Ba/F3 TEL-VEGFR2 | cell growth | CCK-8 | – | – | 0.39 |
| C[C@]12CC[C@H](O)CC1=CC[C@@H]1[C@@H]2CC[C@]2(C)C(n3cnc4ccccc43)=CC[C@@H]12 | C4-2B | cell growth | MTT | – | – | 2.2 ± 0.14 |
| Nc1n[nH]c2cc(I)ccc12 | Ba/F3 TEL-VEGFR2 | cell growth | CCK-8 | – | – | 0.25 |
| [Cl-].[Cl-].[Os+2].c1cnc2c(c1)ccc1cccnc12.c1cnc2c(c1)ccc1cccnc12.c1cnc2c(c1)ccc1cccnc12 | SK-MEL-28 | cell growth | SRB | – | red light 633 nm, 1% O2 hypoxia | 87.5 |
| Cc1c(C(=O)O)ccc2c3n(nc12)[C@@H]1[C@H](C3)N(CC2CC2)[C@@]2(C(=O)Nc3cc(Cl)ccc32)[C@H]1c1cccc(Cl)c1F | NUGC-4 (MDM2 non-amplified) | cell growth | alamarBlue | 120 h | – | 0.007 |
| CNC(=O)c1ccc(N2C(=S)N(c3ccc(C#N)c(C(F)(F)F)c3)C(=O)C2(C)C)cc1F | C4-2B | cell growth | MTT | – | – | 15.6 ± 0.27 |
